# Measurements pooled from the literature.
# Numbered parts are unrelated; each lists some results of a single study. Values joined by “and” are separate records of one study, mostly repeats; a detail may differ.
# Sequence of UniProt Q16566 (whole entry, looked up): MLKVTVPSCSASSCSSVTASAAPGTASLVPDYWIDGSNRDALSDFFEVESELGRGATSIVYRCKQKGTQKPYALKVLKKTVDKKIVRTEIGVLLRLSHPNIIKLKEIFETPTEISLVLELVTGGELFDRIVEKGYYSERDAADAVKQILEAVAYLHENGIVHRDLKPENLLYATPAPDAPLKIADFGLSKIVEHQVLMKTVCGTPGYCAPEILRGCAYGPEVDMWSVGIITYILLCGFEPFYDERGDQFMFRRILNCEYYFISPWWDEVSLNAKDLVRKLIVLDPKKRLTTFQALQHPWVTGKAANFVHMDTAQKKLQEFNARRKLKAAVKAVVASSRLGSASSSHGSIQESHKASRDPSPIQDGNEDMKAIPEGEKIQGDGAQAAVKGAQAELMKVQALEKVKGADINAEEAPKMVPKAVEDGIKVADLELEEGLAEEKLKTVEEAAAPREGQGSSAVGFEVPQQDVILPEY
# Sequence of UniProt Q9BWU1 (whole entry, looked up): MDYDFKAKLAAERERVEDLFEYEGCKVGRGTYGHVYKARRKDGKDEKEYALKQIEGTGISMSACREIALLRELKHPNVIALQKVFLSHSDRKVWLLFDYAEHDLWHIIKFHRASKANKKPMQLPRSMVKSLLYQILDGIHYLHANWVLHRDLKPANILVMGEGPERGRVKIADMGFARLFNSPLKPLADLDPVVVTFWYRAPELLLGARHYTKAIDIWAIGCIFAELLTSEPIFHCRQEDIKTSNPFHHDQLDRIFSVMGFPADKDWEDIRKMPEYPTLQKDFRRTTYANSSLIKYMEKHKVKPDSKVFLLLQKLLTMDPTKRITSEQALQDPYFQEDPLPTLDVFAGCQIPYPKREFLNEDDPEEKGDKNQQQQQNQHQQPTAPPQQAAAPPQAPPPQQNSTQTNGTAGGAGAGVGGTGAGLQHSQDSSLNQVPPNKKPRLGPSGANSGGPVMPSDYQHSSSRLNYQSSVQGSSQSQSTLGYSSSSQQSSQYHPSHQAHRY
# Sequence of UniProt Q9Y3S1 (whole entry, looked up): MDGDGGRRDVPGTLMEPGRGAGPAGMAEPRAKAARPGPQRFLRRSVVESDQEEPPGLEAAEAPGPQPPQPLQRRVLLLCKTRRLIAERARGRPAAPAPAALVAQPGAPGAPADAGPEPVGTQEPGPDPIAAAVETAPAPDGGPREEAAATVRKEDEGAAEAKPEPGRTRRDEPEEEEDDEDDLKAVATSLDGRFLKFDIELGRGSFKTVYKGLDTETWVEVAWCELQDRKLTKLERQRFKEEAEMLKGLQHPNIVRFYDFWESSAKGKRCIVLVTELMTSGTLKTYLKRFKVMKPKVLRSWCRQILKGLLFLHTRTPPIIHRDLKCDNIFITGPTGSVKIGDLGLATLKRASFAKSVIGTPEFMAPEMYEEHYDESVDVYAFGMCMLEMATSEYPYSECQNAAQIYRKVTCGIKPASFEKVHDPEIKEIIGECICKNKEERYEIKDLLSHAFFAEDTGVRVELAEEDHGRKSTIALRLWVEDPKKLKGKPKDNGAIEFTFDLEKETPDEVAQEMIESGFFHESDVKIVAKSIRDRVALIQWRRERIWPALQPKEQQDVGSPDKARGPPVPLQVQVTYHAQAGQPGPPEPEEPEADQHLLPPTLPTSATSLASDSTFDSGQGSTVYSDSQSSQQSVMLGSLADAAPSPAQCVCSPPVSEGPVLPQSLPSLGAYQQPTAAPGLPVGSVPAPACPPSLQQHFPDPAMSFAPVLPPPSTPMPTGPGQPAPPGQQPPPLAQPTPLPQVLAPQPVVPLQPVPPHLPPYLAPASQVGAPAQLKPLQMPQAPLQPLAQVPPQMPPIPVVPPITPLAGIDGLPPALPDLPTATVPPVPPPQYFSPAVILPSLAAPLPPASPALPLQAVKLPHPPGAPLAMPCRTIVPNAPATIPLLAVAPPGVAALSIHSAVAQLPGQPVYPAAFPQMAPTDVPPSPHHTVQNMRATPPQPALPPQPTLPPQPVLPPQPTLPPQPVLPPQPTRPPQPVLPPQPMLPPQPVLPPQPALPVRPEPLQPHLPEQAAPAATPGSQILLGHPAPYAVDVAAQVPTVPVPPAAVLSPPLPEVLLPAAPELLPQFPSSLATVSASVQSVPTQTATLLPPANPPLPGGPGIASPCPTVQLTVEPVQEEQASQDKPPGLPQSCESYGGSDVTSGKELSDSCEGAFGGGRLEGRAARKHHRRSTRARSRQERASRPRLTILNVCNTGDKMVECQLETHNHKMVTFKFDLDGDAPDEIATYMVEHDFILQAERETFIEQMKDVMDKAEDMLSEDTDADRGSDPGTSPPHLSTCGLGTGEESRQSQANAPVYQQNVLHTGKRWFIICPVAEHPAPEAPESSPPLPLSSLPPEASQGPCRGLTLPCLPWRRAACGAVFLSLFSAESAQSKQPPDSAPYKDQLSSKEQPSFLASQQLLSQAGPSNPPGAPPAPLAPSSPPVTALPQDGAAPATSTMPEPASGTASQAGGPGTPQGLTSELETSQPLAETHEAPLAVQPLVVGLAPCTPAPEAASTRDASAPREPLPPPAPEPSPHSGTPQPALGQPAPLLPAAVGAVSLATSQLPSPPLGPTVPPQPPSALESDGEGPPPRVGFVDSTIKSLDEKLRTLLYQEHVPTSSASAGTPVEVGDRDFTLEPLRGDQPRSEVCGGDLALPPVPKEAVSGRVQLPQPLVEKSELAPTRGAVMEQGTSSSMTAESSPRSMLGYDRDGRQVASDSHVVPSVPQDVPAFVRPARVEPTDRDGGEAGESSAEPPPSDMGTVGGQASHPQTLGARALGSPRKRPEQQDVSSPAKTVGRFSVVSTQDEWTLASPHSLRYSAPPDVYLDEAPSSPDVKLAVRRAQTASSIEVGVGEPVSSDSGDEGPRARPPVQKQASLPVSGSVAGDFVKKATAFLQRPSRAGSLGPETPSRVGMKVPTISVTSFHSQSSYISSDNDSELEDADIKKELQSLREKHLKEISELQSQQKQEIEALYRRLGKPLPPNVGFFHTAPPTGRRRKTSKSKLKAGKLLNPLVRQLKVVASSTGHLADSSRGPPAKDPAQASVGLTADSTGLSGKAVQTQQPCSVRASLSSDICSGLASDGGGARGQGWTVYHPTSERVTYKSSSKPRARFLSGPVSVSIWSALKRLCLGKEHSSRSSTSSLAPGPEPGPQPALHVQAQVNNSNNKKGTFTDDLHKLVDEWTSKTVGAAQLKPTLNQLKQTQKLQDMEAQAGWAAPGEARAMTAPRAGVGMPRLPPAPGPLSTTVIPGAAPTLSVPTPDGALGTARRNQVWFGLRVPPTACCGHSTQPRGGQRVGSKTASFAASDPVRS
# Sequence of UniProt Q00532 (whole entry, looked up): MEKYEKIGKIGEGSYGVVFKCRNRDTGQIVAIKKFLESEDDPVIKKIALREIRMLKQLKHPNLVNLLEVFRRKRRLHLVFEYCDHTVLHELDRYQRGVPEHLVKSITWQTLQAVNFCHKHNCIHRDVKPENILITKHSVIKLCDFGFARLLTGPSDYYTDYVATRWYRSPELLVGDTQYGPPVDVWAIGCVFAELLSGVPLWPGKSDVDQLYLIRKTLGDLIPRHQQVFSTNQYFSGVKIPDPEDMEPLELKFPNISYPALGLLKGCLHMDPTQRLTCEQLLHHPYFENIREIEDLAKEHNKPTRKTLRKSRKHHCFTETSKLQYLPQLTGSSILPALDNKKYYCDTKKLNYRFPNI
# Sequence of UniProt P62344 (whole entry, looked up): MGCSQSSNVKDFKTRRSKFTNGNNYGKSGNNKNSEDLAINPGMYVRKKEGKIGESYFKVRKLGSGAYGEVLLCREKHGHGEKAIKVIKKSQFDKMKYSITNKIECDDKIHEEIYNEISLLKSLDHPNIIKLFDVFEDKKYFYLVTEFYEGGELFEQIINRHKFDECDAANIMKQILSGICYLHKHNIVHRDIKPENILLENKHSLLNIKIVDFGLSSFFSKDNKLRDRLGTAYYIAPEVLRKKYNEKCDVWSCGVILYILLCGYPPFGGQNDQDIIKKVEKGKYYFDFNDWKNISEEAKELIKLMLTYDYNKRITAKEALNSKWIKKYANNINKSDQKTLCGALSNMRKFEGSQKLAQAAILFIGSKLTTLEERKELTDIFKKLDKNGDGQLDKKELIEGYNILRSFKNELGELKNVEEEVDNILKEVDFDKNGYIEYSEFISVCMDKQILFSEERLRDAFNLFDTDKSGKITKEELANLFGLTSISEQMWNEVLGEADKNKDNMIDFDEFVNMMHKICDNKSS

# Block 1
# Target: Calcium/calmodulin-dependent protein kinase type II subunit alpha (CAMK2A, Homo sapiens, UniProt Q9UQM7)
# Sequence of UniProt Q9UQM7 (whole entry, looked up): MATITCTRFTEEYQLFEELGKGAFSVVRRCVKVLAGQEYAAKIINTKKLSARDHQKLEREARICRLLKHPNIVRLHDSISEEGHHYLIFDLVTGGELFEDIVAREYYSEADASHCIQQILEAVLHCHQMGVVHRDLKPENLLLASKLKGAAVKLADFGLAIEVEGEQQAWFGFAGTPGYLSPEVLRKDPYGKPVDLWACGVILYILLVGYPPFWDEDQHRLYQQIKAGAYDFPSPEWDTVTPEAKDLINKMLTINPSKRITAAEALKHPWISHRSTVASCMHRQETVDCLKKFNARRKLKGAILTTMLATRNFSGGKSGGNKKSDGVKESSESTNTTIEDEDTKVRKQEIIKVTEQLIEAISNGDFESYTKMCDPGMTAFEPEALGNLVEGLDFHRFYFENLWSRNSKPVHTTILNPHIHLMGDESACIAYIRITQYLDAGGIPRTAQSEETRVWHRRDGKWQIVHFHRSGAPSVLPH
# Read-out: enzyme activity
# Action: inhibitor
# Concentration: 10 µM
SMILES,inhibition [%]
Cc1cc(O)c2c(c1)C(=O)c1cc(O)cc(O[C@@H]3O[C@H](CO)[C@@H](O)[C@H](O)[C@H]3O)c1C2=O,-13
COc1ccc(CCO[C@@H]2O[C@H](CO[C@@H]3OC[C@H](O)[C@H](O)[C@H]3O)[C@@H](OC(=O)/C=C/c3ccc(O)c(OC)c3)[C@H](O[C@@H]3O[C@@H](C)[C@H](O)[C@@H](O)[C@H]3O)[C@H]2O)cc1O,-69
COc1ccc(-c2noc(CC(=O)O)c2-c2ccc(OC)cc2)cc1,-2
O=C(/C=C/c1ccc(O)c(O)c1)O[C@H]1[C@H](O)C[C@](O)(C(=O)O)C[C@H]1O,10
CC(C)=CCc1c(O)ccc(-c2coc3cc(O)cc(O)c3c2=O)c1O,3

# Block 2
# Cell line: A-375
# Concentration: 100 µM
# Time: 36 h
SMILES,viability
O=C(O)c1ccc[n+]([O-])c1,124%
C=C1[C@H](CO)[C@@H](O)C[C@@H]1n1cnc2c(=O)[nH]c(N)nc21,109%
Cc1c(-c2ccccc2)oc2c(C(=O)OCCN3CCCCC3)cccc2c1=O,1.71%
Cc1cccc(C)c1NC(=O)c1ccccc1C(=O)O,106%
Nc1nc2c(ncn2COCCO)c(=O)[nH]1,103%
OC1(c2ccc(Cl)c(C(F)(F)F)c2)CCN(CCCC(c2ccc(F)cc2)c2ccc(F)cc2)CC1,-0.743%
COc1ccc([C@@H]2Sc3ccccc3N(CCN(C)C)C(=O)[C@@H]2OC(C)=O)cc1,116%

# Block 3
# Target: Beta-2 adrenergic receptor (ADRB2, Homo sapiens, UniProt P07550)
# Sequence of UniProt P07550 (whole entry, looked up): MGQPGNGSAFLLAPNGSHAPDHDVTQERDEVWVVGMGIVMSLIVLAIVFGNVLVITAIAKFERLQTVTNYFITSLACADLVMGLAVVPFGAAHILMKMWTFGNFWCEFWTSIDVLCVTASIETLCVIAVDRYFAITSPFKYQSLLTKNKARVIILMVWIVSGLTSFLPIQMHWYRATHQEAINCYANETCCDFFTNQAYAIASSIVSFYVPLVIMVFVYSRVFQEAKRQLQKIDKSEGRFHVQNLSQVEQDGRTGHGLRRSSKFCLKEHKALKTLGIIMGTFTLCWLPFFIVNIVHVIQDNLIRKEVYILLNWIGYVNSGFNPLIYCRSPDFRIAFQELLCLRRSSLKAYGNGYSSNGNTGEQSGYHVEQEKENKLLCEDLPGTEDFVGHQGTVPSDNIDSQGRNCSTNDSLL
# Read-out: ligand displacement
# Concentration: 10 µM
Structure (SMILES),inhibition [%]
O=S(=O)(NC1CCC(c2cc(F)ccc2F)(S(=O)(=O)c2ccc(Cl)cc2)CC1)C(F)(F)F (centres unmarked),9.91
COc1ccc2cc(OCC3(C(=O)O)CN(C(=O)c4ccc(F)cc4)C3)ccc2c1,-17.4
COc1cc(-c2cn(C3CCc4c(F)cccc4N(CC(F)(F)F)C3=O)nn2)ccc1-n1cnc(C)c1 (centres unmarked),-5.61
Cc1cc(Nc2nccc(C)n2)cc(-c2cnc([C@@]3(O)CC[C@H](C(=O)O)C(C)(C)C3)s2)c1,5.53
CN(C)C(=O)c1sc2nc(N3CCC(S(C)(=O)=O)CC3)cc(C(F)(F)F)c2c1N,6.22
O=C1NC(c2ccccn2)Sc2ccccc21 (centres unmarked),-13.9
Cc1ccccc1Oc1cc(-n2c(=O)cc(C(F)(F)F)[nH]c2=O)c2ccccc2c1Cl,11.2
O=C(NCCCC1CCCCC1)c1ccc(CNC(=O)c2cnn(-c3ccccc3)c2C(F)(F)F)cc1,12.4
COc1cccc(NC(=O)c2nc3scc(CN(C)Cc4ccccc4)c3c(=O)[nH]2)c1,-6.81
C[C@@H]1CN(c2cc(-c3n[nH]c4ccc(OC5(C)CC5)cc34)ncn2)C[C@H](C)O1,26.4
Cc1ccc(-c2cnc([C@@]3(O)CC[C@H](C(=O)O)C(C)(C)C3)s2)cc1Nc1cccc(C(F)(F)F)n1,1.6
CNC(=N)NCCC[C@H](NC(=O)[C@H](CC(C)C)NC(=O)NNC(=O)[C@H](Cc1ccccc1)NC(=O)[C@H](CO)NC(=O)[C@H](CC(N)=O)NC(=O)[C@@H](Cc1ccncc1)NC(=O)[C@H](N)Cc1ccc(O)cc1)C(=O)N[C@@H](Cc1ccccc1)C(N)=O,1.39
CN([C@@H]1CCc2c(CC(=O)O)c3ccccc3n2C1)S(=O)(=O)c1ccc(F)cc1,-7.68
CCC(F)(F)c1cc(N2CCC(S(C)(=O)=O)CC2)nc2sc(C(N)=O)c(N)c12,8.96
Cc1ncc(-c2cc(Cl)ccc2F)cc1-n1c(=O)n(CC(N)=O)c2ccccc21,16.7
COc1cc(N[C@@H]2CCCC[C@]2(O)C(F)(F)F)ccc1F,22.2
COCCOc1nc(-c2ccc(Cl)nc2)nc2c1CN(C(=O)c1ncn3ccccc13)CC2,-0.65
CC1=C(C#N)C(c2ccc3[nH]nc(C)c3c2)C(C#N)=C(C)N1,20.2
COc1cc(C(=O)O)ncc1C#Cc1ccccc1NS(=O)(=O)c1cccc2c(N(C)C)ccnc12,-2.19
Cc1c(NC(=O)c2cc(C(N)=O)nc3cc(F)ccc23)c(C(F)(F)F)nn1Cc1ccc(C#N)cc1,21.7
CC(=O)Nc1ncc(CN2CCC[C@H](Cc3cc(C)nc(C)c3)C2)s1,-5.16
CNC(=O)Nc1ccc2c(c1)CC[C@]21OC(=O)N(CC(=O)N(Cc2ccc(F)cc2)[C@@H](C)C(F)(F)F)C1=O,19
CN1CCN(c2cnc3c(C4CCN(C(=O)c5ccc(OC(F)(F)F)cc5N)CC4)ncnc3c2)CC1,-4.21
CC[C@H](CC(=O)O)n1c(=O)c2ncccc2n(Cc2cn(C)c3cc(C)cc(C)c23)c1=O,10.5
CN1CCN(C(=O)C(C)(C)c2ccc(C(=O)Nc3cn4cc(-c5cc(C(C)(C)C)cc(C(C)(C)C)c5)ccc4n3)cc2)CC1,17.2

# Block 4
# SMILES: CO[C@@H]1[C@H](N(C)C(=O)c2ccccc2)C[C@H]2O[C@]1(C)n1c3ccccc3c3c4c(c5c6ccccc6n2c5c31)C(=O)NC4
# Action: inhibitor
# Concentration: 1 µM
target,test,inhibition [%]
"CDK19 (Homo sapiens, UniProt Q9BWU1)",,20
"CDPK1 (Plasmodium falciparum, UniProt P62344)",enzyme activity,18
"WNK2 (Homo sapiens, UniProt Q9Y3S1)",enzyme activity,5
"CAMK4 (Homo sapiens, UniProt Q16566)",enzyme activity,0
"CDKL1 (Homo sapiens, UniProt Q00532)",enzyme activity,57
"PIK3CA (Homo sapiens, UniProt P42336, C420R)",enzyme activity,22
"HCK (Homo sapiens, UniProt P08631)",enzyme activity,45
"EPHA5 (Homo sapiens, UniProt P54756)",enzyme activity,0

# Block 5
# Cell line: mouse MPNST tumor cells
# Method: high-content nuclear imaging
# Refers to: cell number
# Concentration: 10 µM
# Time: 12 h
# Notes: mean of 2 replicates
# Baseline: plate mean
# Reading: higher = more cells
SMILES,nuclei count
Nc1ccn([C@H]2CC[C@@H](CO)O2)c(=O)n1,0.958 z-score and 0.302 z-score
CC(C)NCC(O)c1ccc(NS(C)(=O)=O)cc1 (centres unmarked),0.678 z-score
CC(C)N(CCCCOCC(=O)NS(C)(=O)=O)c1cnc(-c2ccccc2)c(-c2ccccc2)n1,-0.543 z-score
CC(=NNC(=S)N1CCC1)c1ccccn1,-3.3 z-score
CN(C)C[C@H](O)Cn1c2ccc(Br)cc2c2cc(Br)ccc21 (racemic),-6.55 z-score
CCOC(=O)Nc1ccc2c(c1)N(C(=O)CCN1CCOCC1)c1ccccc1S2,0.275 z-score
COC(=O)C1=C(C)NC(C)=C(C(=O)OCC(C)C)C1c1ccccc1[N+](=O)[O-] (centres unmarked),1.06 z-score and 0.855 z-score
CCCCCCCN(CC)CCCC(O)c1ccc(NS(C)(=O)=O)cc1 (centres unmarked),1.32 z-score and 2.24 z-score and 2.32 z-score

# Some of these lines once more (block 3):
Structure (SMILES),inhibition [%]
C[C@@H]1CN(c2cc(-c3n[nH]c4ccc(OC5(C)CC5)cc34)ncn2)C[C@H](C)O1,26.4
Cc1ccc(-c2cnc([C@@]3(O)CC[C@H](C(=O)O)C(C)(C)C3)s2)cc1Nc1cccc(C(F)(F)F)n1,1.6
CNC(=N)NCCC[C@H](NC(=O)[C@H](CC(C)C)NC(=O)NNC(=O)[C@H](Cc1ccccc1)NC(=O)[C@H](CO)NC(=O)[C@H](CC(N)=O)NC(=O)[C@@H](Cc1ccncc1)NC(=O)[C@H](N)Cc1ccc(O)cc1)C(=O)N[C@@H](Cc1ccccc1)C(N)=O,1.39
CN([C@@H]1CCc2c(CC(=O)O)c3ccccc3n2C1)S(=O)(=O)c1ccc(F)cc1,-7.68
CCC(F)(F)c1cc(N2CCC(S(C)(=O)=O)CC2)nc2sc(C(N)=O)c(N)c12,8.96
Cc1ncc(-c2cc(Cl)ccc2F)cc1-n1c(=O)n(CC(N)=O)c2ccccc21,16.7
COc1cc(N[C@@H]2CCCC[C@]2(O)C(F)(F)F)ccc1F,22.2
COCCOc1nc(-c2ccc(Cl)nc2)nc2c1CN(C(=O)c1ncn3ccccc13)CC2,-0.65
